Measured values pooled from the literature.
Parts stem from different laboratories: compare values within a part only.

Block 1
Target: Sal-like protein 4, full length isoform B (SALL4, Homo sapiens, UniProt Q9UJQ4-2, residues 1-616)
Method: universal PBM
Form: double-stranded DNA, one strand shown
Medium: in vitro
Tested at: not given
Notes: 8-mer, flanks averaged, mean of replicates
Direction: higher = stronger binding
Construct (chain): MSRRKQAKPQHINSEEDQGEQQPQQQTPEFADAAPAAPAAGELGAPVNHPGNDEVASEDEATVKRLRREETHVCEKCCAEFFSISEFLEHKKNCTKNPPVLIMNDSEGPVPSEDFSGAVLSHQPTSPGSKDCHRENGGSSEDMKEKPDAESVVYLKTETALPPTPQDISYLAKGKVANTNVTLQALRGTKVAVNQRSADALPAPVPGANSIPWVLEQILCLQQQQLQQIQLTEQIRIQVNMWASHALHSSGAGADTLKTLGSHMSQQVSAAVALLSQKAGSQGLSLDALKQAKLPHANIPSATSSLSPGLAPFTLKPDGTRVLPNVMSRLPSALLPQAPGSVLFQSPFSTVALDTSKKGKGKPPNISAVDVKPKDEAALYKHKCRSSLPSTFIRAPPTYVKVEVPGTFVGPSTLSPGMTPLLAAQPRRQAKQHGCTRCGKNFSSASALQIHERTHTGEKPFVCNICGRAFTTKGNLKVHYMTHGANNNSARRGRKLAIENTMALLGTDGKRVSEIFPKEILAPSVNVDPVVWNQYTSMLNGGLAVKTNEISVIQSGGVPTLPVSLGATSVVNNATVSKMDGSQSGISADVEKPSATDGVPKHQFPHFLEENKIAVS
Oligonucleotide | E-score
AAATACGA | 0.249
GGGGCGAA | -0.188
CTAATCTC | 0.0645
CAGCATGA | -0.0885

Block 2
Target: Histone acetyltransferase KAT6A, winged helix 1, GST fusion (KAT6A, Homo sapiens, UniProt Q92794, residues 1-85)
Method: protein binding microarray
Form: double-stranded DNA, one strand shown
Medium: in vitro
Tested at: not given
Notes: 8-mer, flanks averaged, mean of 2 arrays, mostly near background
Baseline: not given
Direction: higher = stronger binding
Residues (chain): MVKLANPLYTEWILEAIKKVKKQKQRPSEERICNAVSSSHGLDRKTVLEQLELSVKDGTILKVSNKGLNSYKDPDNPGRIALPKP
Oligonucleotide | E-score
GTAGAACA | -0.077
GCGACACC | 0.223
GACGTGTA | -0.0351
AAGTACTC | 0.0352
GAGCCCGC | 0.311

Block 3
Target: Interferon regulatory factor 7, full length, phosphomimetic (IRF7, Homo sapiens, UniProt Q92985, residues 1-503, S471D/S472D/S475D/S476D/S477D/S483D/S484D/S487D)
Method: protein-binding microarray
Form: double-stranded DNA, one strand shown
Medium: in vitro
Tested at: 2200 nM top
Notes: 60-bp whole probe
Added: salmon DNA 0.4 mg/ml
Baseline: random background probes
Direction: higher = stronger binding
Shared flanks, not repeated: GCCTAGCAC … GTCTTGATTCGCTTGACGCTGCTG
Target sequence (chain): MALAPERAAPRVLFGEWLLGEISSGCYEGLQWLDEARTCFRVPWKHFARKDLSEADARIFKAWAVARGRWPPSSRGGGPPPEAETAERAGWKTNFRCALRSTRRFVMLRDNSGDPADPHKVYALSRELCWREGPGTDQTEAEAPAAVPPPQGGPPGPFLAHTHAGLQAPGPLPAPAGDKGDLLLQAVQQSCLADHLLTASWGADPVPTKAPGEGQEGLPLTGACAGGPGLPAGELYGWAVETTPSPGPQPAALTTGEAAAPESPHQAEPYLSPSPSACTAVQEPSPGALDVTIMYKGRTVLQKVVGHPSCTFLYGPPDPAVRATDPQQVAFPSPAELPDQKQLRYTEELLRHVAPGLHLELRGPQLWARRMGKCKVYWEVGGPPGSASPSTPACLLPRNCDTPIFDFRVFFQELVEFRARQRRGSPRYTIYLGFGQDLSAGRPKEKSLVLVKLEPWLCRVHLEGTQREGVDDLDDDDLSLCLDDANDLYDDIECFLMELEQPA
Oligonucleotide | fitted relative affinity [z-score]
GACGGTTTGCTTCTCCTGACGTGCTAG | 1.75
GACGATATCAGTTTCGGGACGTGCTAG | 4.28
CACGATATCGGGTATCGAGACGTGCTA | 0.382
GACGCTTTCGGGTTTCGAGACGTGCTA | 10.4
TTAAAACTGGGGTATCGATTAGTGCTA | -0.0161
GAAGTTCTAAATATCTTTGTGTGCTAG | -0.676
CTAGGTCTCCTTATCCTTTAGTGCTAG | 0.921

Mixed results
Molecule | target | test | system | conditions | scale | endpoint | result
PhoQ, residues 284 288 289 292 302 303 ASASEQ | PhoP, residues 12 14 15 18 19 IFFTR (Escherichia coli, UniProt P23836) | Sort-seq, refers to: YFP reporter | E. coli | PhoQ-PhoP variant library, added: 10 µM Mg2+ | baseline: high Mg2+ state, higher = stronger signaling | fold induction | 15.3

Excerpt of the above (block 3):
Oligonucleotide | fitted relative affinity [z-score]
TTAAAACTGGGGTATCGATTAGTGCTA | -0.0161
GAAGTTCTAAATATCTTTGTGTGCTAG | -0.676
CTAGGTCTCCTTATCCTTTAGTGCTAG | 0.921
